Measurements gathered from unrelated publications.
± marks the error that the study gave. Bridges are numbered along the chain shown (N, C = ends). Where no end group is shown, it is not given here.
MAPK8: MAPK8, pT183, pY185 (Homo sapiens, UniProt P45983)
T1: B2m/H2-D1 single-chain trimer MHC part (Mus musculus); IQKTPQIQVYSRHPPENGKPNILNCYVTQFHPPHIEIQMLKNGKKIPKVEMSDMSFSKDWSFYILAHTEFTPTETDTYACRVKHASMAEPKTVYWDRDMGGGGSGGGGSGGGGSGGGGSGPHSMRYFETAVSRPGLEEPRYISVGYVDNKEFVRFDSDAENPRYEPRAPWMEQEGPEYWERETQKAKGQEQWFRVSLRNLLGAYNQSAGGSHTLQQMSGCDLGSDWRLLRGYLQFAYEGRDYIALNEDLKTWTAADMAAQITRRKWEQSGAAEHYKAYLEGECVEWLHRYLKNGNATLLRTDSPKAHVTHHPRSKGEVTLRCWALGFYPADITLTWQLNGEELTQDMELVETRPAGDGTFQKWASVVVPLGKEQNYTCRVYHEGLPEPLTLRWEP
T2: NR1I2/RXRA (Homo sapiens); chain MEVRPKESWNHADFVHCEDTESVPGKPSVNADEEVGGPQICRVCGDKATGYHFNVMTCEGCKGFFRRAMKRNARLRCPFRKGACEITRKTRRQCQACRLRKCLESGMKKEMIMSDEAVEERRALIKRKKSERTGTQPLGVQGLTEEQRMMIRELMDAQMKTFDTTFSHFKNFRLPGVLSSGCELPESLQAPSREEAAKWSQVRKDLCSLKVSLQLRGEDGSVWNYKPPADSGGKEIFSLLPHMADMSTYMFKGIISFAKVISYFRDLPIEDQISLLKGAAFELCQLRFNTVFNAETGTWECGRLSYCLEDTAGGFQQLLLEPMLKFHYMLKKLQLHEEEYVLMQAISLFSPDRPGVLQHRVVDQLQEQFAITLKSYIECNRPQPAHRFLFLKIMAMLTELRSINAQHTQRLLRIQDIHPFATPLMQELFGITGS; chain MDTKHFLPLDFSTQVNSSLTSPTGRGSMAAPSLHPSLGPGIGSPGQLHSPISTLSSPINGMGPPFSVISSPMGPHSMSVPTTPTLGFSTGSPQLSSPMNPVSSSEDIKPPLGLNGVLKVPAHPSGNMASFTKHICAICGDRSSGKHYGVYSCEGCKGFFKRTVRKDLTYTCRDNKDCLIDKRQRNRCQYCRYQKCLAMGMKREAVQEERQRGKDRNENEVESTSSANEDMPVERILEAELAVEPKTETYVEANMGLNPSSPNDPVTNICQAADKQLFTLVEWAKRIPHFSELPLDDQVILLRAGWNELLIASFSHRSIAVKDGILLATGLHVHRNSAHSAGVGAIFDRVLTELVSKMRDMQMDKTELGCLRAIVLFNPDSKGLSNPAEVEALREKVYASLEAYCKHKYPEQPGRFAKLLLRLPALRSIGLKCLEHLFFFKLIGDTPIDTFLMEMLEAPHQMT
B1: UGT1A9 (Homo sapiens, UniProt O60656); chain GKLLVVPMDGSHWFTMRSVVEKLILRGHEVVVVMPEVSWQLGRSLNCTVKTYSTSYTLEDLDREFKAFAHAQWKAQVRSIYSLLMGSYNDIFDLFFSNCRSLFKDKKLVEYLKESSFDAVFLDPFDNCGLIVAKYFSLPSVVFARGILCHYLEEGAQCPAPLSYVPRILLGFSDAMTFKERVRNHIMHLEEHLLCHRFFKNALEIASEILQTPVTEYDLYSHTSIWLLRTDFVLDYPKPVMPNMIFIGGINCHQGKPLPMEFEAYINASGEHGIVVFSLGSMVSEIPEKKAMAIADALGKIPQTVLWRYTGTRPSNLANNTILVKWLPQNDLLGHPMTRAFITHAGSHGVYESICNGVPMVMMPLFGDQMDNAKRMETKGAGVTLNVLEMTSEDLENALKAVINDKSYKENIMRLSSLHKDRPVEPLDLAVFWVEFVMRHKGAPHLRPAAHDLTWYQYHSLDVIGFLLAVVLTVAFITFKCCAYGYRKCLGKKGRVKKAHKSKTH
B2: VEGFA VEGF121 N-terminal KKK addition (Homo sapiens); chain KKKAPMAEGGGQNHHEVVKFMDVYQRSYCHPIETLVDIFQEYPDEIEYIFKPSCVPLMRCGGCCNDEGLECVPTEESNITMQIMRIKPHQGQHIGEMSFLQHNKCECRPKKDRARQEKCDKPRR
B3: CER1 18-267 (Homo sapiens, UniProt O95813); sequence looked up; chain TRHQDGRQNQSSLSPVLLPRNQRELPTGNHEEAEEKPDLFVAVPHLVATSPAGEGQRQREKMLSRFGRFWKKPEREMHPSRDSDSEPFPPGTQSLIQPIDGMKMEKSPLREEAKKFWHHFMFRKTPASQGVILPIKSHEVHWETCRTVPFSQTITHEGCEKVVVQNNLCFGKCGSVHFPGAAQHSHTSCSHCLPAKFTTMHLPLNCTELSSVIKVVMLVEECQCKVKTEHEDGHILHAGSQDSFIPGVSA

`QDGGWS (THBS1 residues 434-439 (Homo sapiens))` has an IC50 of over 300 µM (FN1 intact plasma (Homo sapiens); competition with coated peptide, radioligand binding; peptide).
`B1 (UGT1A9)` gave a Vmax/Km of 3450 µL/min/mg (O=c1cc(-c2ccc(O)c(O)c2)oc2ccc(O)cc12; steady-state kinetics; pH 7.4, 37 °C).
For `GWSHW (THBS1 residues 437-441 (Homo sapiens))`, the IC50 was over 300 µM (FN1 intact plasma (Homo sapiens); competition with coated peptide, radioligand binding; peptide).
`B2` gave an IC50 of 0.00065 µM (KDR (Homo sapiens, UniProt P35968); competition with ligand, radioligand binding; PAE/KDR; together with: 125I-VEGF165).
`DMBT1 mature, O-linked sialylated keratan sulfate (Homo sapiens, UniProt Q9UGM3)` has an IC50 of under 0.0001 µM (SIGLEC8 17-363 (Homo sapiens, UniProt Q9NYZ4); competition with Siglec-8 binding, inhibitor, binding inhibition assay; apparent).
`YANQLKFRKKKLKFCK (SETD1B D-site peptide (Homo sapiens))` gave an IC50 of 28 µM (MAPK8; kinase activity, inhibitor, competitive kinase inhibition assay; peptide; together with: ATP 1 mM).
With `TAPDNLGKM (Tyrp1 peptide residues 455-463 Y8K/A9M)` the Tm was 39.5 °C (T1, B2m/H2-D1 single-chain trimer MHC part (Mus musculus); differential scanning fluorimetry; peptide).
`YAYPGPARPASLGLGP (CDX1 D-site peptide (Homo sapiens))` gave an IC50 of 2.7 µM (MAPK8; kinase activity, inhibitor, competitive kinase inhibition assay; peptide; together with: ATP 1 mM).
For `KRFKQDGGWSHWSPWSS (THBS1 residues 430-446 (Homo sapiens))`, the IC50 was 200 µM (FN1 intact plasma (Homo sapiens); competition with coated peptide, radioligand binding; peptide).
The IC50 of `B3 (CER1 18-267)` is reported as 0.0341 µM (INHBB mature (Homo sapiens, UniProt P09529); SMAD3 luciferase reporter, inhibitor; Fc fusion, A-204; together with: Activin B 0.8 nM).
The IC50 of `GGWSHW (THBS1 residues 436-441 (Homo sapiens))` is reported as 29 ± 11 µM (FN1 intact plasma (Homo sapiens); competition with coated peptide, radioligand binding; peptide).
`Insulin human` has a brain concentration of 8.7 ± 8.7 pg/mg tissue (rat, thalamus/hypothalamus; intranasal, 20 µg per nostril, 120 min).
The IC50 of `YAGEQRRRRLELQLQE (MYH14 D-site peptide (Homo sapiens))` is reported as 5.6 µM (MAPK8; kinase activity, inhibitor, competitive kinase inhibition assay; peptide; together with: ATP 1 mM).
`KYLPYWPVLSSL (KYL peptide 12-mer)` gave an IC50 of 4.22 ± 0.5 µM (EPHA4 29-209 (Homo sapiens, UniProt P54764); competition with ligand, fluorescence polarisation; peptide; together with: FITC-KYL).
`PRL (Homo sapiens, UniProt P01236)` gave a pKa of 5.84 (NMR, item: His59; 35 °C, numbering of the source).
`TGAACTTGCTGACCCTCTGCTTTC (dsDNA)` gave a Ki of 0.131 ± 0.0066 µM (T2, NR1I2/RXRA (Homo sapiens); fluorescence anisotropy competition; double-stranded DNA, one strand shown; together with: DR3 FAM).
With `YAERPSRDHLYLPLEP (NFATC3 D-site peptide (Homo sapiens))` the IC50 was 0.89 µM (MAPK8; kinase activity, inhibitor, competitive kinase inhibition assay; peptide; together with: ATP 1 mM).
With `CGGQDLKSC (disulfide 1-9 (inferred)) (disulfide)` the cell uptake was about 3 fold (CuFi-1; flow cytometry; nanoparticles after CF sputum permeation; 2 h, 37 °C; relative to: unmodified carboxylated nanoparticles).
`TFEB fragment E77A/N78V` gave an IC50 of 190 µM (Ppp3ca/Ppp3r1 calcineurin A and B (Rattus norvegicus); calcineurin dephosphorylation, inhibitor, colorimetric phosphatase assay).

Some of these lines once more:
The IC50 of `B3 (CER1 18-267)` is reported as 0.0341 µM (INHBB mature (Homo sapiens, UniProt P09529); SMAD3 luciferase reporter, inhibitor; Fc fusion, A-204; together with: Activin B 0.8 nM).
